Experimental data pooled from the literature.
Compare with care: the assays were run in different laboratories.

| Structure (SMILES) | organism | assay | system | conditions | MIC |
| --- | --- | --- | --- | --- | --- |
| COc1cc(OC)c2c(c1)C(=O)c1cc3oc(=O)cc(-c4ccc(Cl)cc4)c3c(O)c1C2=O | Bacillus cereus | microbial growth |  |  | 64 µg/mL |
| COC1C=COC2(C)Oc3c(C)c(O)c4c(c3C2=O)C2=NC3(CCN(CC(C)C)CC3)NC2=C(NC(=O)C(C)=CC=CC(C)C(O)C(C)C(O)C(C)C(OC(=O)Nc2cnccn2)C1C)C4=O (stereo not drawn) | Mycobacteroides abscessus |  | ATCC 19977 wild type | 90% growth inhibition | 0.028 µM |
| CC[C@@H](C)[C@@H](NC(=O)[C@@H](C)NC(=O)[C@@H](CCCCN)NC(=O)[C@@H](CC(C)C)NC(=O)[C@@H](C)NC(=O)[C@H](NC(=O)[C@@H](CCCCN)NC(=O)[C@@H](CC(C)C)NC(=O)[C@H](NC(=O)[C@@H](CCCCN)NC(=O)[C@@H](CCCCN)NC(=O)[C@@H](CCCCN)NC(=O)[C@@H](C)NC(=O)[C@@H](CCCCN)NC(=O)[C@@H](CO)NC(=O)[C@@H](Cc1ccccc1)NC(=O)[C@H](NC(=O)[C@@H](CCCCN)NC(=O)[C@@H](CC(C)C)NC(=O)[C@@H](Cc1ccccc1)NC(=O)[C@@H](CO)NC(=O)[C@@H](CCCCN)NC(=O)[C@@H](Cc1c[nH]c2ccccc12)NC(=O)[C@@H](CCCCN)NC(C)=O)[C@H](C)O)C(C)C)[C@H](C)O)C(=O)N[C@H](CO)C(=O)N[C@H](CCCCN)C(N)=O | Acinetobacter baumannii |  | 759, Mueller-Hinton broth | 24 h, 37 °C | 0.3 µM |
| N#Cc1ccc2cccc(O)c2n1 | Salmonella enterica | microbial growth, agar dilution | ATCC13311 TYPHIMURIUM |  | > 1500 µM |
| CC[C@@H](C)[C@@H](NC(=O)[C@@H](C)NC(=O)[C@@H](CCCCN)NC(=O)[C@@H](CC(C)C)NC(=O)[C@@H](CC(C)C)NC(=O)[C@H](NC(=O)[C@@H](CCCCN)NC(=O)[C@@H](CC(C)C)NC(=O)[C@@H](C)NC(=O)[C@@H](CCCCN)NC(=O)[C@@H](CCCCN)NC(=O)[C@@H](CCCCN)NC(=O)[C@@H](C)NC(=O)[C@@H](CCCCN)NC(=O)[C@@H](CO)NC(=O)[C@@H](Cc1ccccc1)NC(=O)[C@H](NC(=O)[C@@H](CCCCN)NC(=O)[C@@H](CC(C)C)NC(=O)[C@@H](Cc1ccccc1)NC(=O)[C@@H](CO)NC(=O)[C@@H](CCCCN)NC(=O)[C@@H](Cc1c[nH]c2ccccc12)NC(=O)[C@@H](CCCCN)NC(C)=O)[C@H](C)O)[C@H](C)O)C(=O)N[C@H](CO)C(=O)N[C@H](CCCCN)C(N)=O | Acinetobacter baumannii | broth microdilution | ATCC 19606 | 24 h, 37 °C | 1.3 µM |
| Oc1c(Br)cc(Br)c2nc3c(C(F)(F)F)cc(C(F)(F)F)cc3nc12 | Staphylococcus aureus | broth microdilution | MRSA 1707 | 16 h, 37 °C | 0.05 µM |
| CNC1=C([N+](=O)[O-])C2(C(=O)Nc3ccc(Cl)cc32)C2=C(O1)C(=O)c1ccccc1C2=O (stereo not drawn) | Salmonella enterica | microbial growth, broth dilution | TYPHIMURIUM |  | 250 µg/mL |
| CCCCCCCCCCCCCCCCCCCCCCSCC1OC(OC2C(N)CC(N)C(OC3OC(CN)C(O)CC3N)C2O)C(O)C(N)C1O (stereo not drawn) | Salmonella enterica |  | ATCC 14028 |  | > 150 µg/mL |
| Oc1c(Br)ccc2cccnc12 | Salmonella enterica | microbial growth, agar dilution | ATCC13311 TYPHIMURIUM |  | 35.7 µM |
| CC[C@@H](C)[C@@H](NC(=O)[C@@H](C)NC(=O)[C@@H](CCCCN)NC(=O)[C@@H](CC(C)C)NC(=O)[C@@H](C)NC(=O)[C@H](NC(=O)[C@@H](Cc1c[nH]cn1)NC(=O)[C@@H](CC(C)C)NC(=O)[C@H](NC(=O)[C@H](NC(=O)[C@@H](CCCCN)NC(=O)[C@H](NC(=O)[C@@H](C)NC(=O)[C@@H](CO)NC(=O)[C@@H](CCCCN)NC(=O)[C@@H](Cc1ccccc1)NC(=O)[C@H](NC(=O)[C@@H](CCCCN)NC(=O)[C@@H](CC(C)C)NC(=O)[C@@H](Cc1ccccc1)NC(=O)[C@@H](CO)NC(=O)[C@@H](CCCCN)NC(=O)[C@@H](Cc1c[nH]c2ccccc12)NC(=O)[C@@H](CCCCN)NC(C)=O)[C@H](C)O)C(C)C)[C@H](C)O)C(C)C)[C@H](C)O)C(=O)N[C@H](CO)C(=O)N[C@H](CO)C(N)=O | Acinetobacter baumannii |  | 1012, Mueller-Hinton broth | 24 h, 37 °C | 0.7 µM |
| Cc1c(CN(C)C(=O)/C=C/c2cnc3c(c2)CC(N)C(=O)N3)oc2ccccc12 (stereo not drawn) | Klebsiella pneumoniae, Acinetobacter baumannii |  | mouse model strains |  | 16 µg/mL |
| COC1C=COC2(C)Oc3c(C)c(O)c4c(c3C2=O)C2=NC3(CCN(CC(C)C)CC3)NC2=C(NC(=O)C(C)=CC=CC(C)C(O)C(C)C(O)C(C)C(OC(=O)Nc2cccnn2)C1C)C4=O (stereo not drawn) | Mycobacteroides abscessus | microbial growth | ATCC19977 |  | 0.032 µM |
| CC[C@@H](C)[C@@H](NC(=O)[C@@H](C)NC(=O)[C@@H](CCCCN)NC(=O)[C@@H](CC(C)C)NC(=O)[C@@H](CC(C)C)NC(=O)[C@H](NC(=O)[C@@H](CCCCN)NC(=O)[C@@H](CC(C)C)NC(=O)[C@@H](CCCCN)NC(=O)[C@@H](CCCCN)NC(=O)[C@@H](CCCCN)NC(=O)[C@@H](CCCCN)NC(=O)[C@@H](C)NC(=O)[C@@H](CCCCN)NC(=O)[C@@H](CO)NC(=O)[C@@H](Cc1ccccc1)NC(=O)[C@H](NC(=O)[C@@H](CCCCN)NC(=O)[C@@H](CC(C)C)NC(=O)[C@@H](Cc1ccccc1)NC(=O)[C@@H](CO)NC(=O)[C@@H](CCCCN)NC(=O)[C@@H](Cc1c[nH]c2ccccc12)NC(=O)[C@@H](CCCCN)NC(C)=O)[C@H](C)O)[C@H](C)O)C(=O)N[C@H](CO)C(=O)N[C@H](CCCCN)C(N)=O | Acinetobacter baumannii |  | 821, Mueller-Hinton broth | 24 h, 37 °C | 1.2 µM |
| CC(/C=C/C(O)=C1/C(=O)CNC1=O)=C\[C@@H](C)[C@H]1O[C@@]2(C)O[C@H](C[C@@H]3O[C@@]32CO)[C@@H]1C | Bacillus cereus |  |  |  | 50 µM |
| COc1cccc(C2Nc3ccccc3C3=[O+][Cu-2]4([Cl])[O]c5c(cccc5OC)C=[N+]4N32)c1O (stereo not drawn) | Mycobacterium kansasii | broth microdilution | DSM 44162 | 7 days | 256 µg/mL |
| O=c1c2ccccc2sn1-c1cc(Br)cc(Br)c1 | Candida krusei | growth, broth dilution | ATCC 6258 | MIC-0 | 6.25 µg/mL |
| CCCCCCCCCC1CC2CCCC3CC(CCCCCCCCC)NC(=N1)N23 (stereo not drawn) | Candida krusei | fungal growth | ATCC 6258 |  | 2.9 µM |
| CC[C@@H](C)[C@@H](NC(=O)[C@@H](C)N)C(=O)N[C@H](CCCCN)C(=O)N[C@@H](C(=O)N[C@H](CCCNC(=N)N)C(=O)N[C@H](CCCCN)C(=O)N[C@H](CC(C)C)C(=O)N[C@H](Cc1ccccc1)C(=O)N[C@H](CCCCN)C(=O)N[C@H](CCCCN)C(=O)N[C@H](CC(C)C)C(=O)N[C@H](CC(C)C)C(=O)N[C@H](CCCNC(=N)N)C(N)=O)[C@H](C)CC | Escherichia coli | broth microdilution checkerboard | ATCC 25922, LB medium | together with: gentamicin | 6.25 µg/mL |

Excerpt of the above:
| Structure (SMILES) | organism | assay | system | conditions | MIC |
| --- | --- | --- | --- | --- | --- |
| CC(/C=C/C(O)=C1/C(=O)CNC1=O)=C\[C@@H](C)[C@H]1O[C@@]2(C)O[C@H](C[C@@H]3O[C@@]32CO)[C@@H]1C | Bacillus cereus |  |  |  | 50 µM |
| COc1cccc(C2Nc3ccccc3C3=[O+][Cu-2]4([Cl])[O]c5c(cccc5OC)C=[N+]4N32)c1O (stereo not drawn) | Mycobacterium kansasii | broth microdilution | DSM 44162 | 7 days | 256 µg/mL |
